Published values of several laboratories.
Every numbered part comes from another study and shows a few of its results, in no order. Changes are numbered by the printed parent chain.

Block 1 — target: CCNA2, cyclin fold, Cln2 fusion (human); method: yeast growth competition, sequencing; matrix: yeast; setting: weak parent motif; baseline: not given; reading: higher = stronger binding; endpoint: normalised enrichment score
Starting sequence: SLBP docking peptide (human); ARYKRKLLINDFG
FRYKRKLLINDFG [A1F]: -0.449
ARYKRKDLINDFG [L7D]: 1.12
ARYKRKLLINDVG [F12V]: 0.74
ARYKRKLLILDFG [N10L]: 2.09
ARYKRKLLINDFD [G13D]: 0.487
ARYKRLLLINDFG [K6L]: 1.9
ARYKRKLLIYDFG [N10Y]: 1.57
ARYVRKLLINDFG [K4V]: 1.32
ARYKRKLLINDFW [G13W]: 1.39
ARHKRKLLINDFG [Y3H]: 0.963

Block 2 — method: RNA Bind-n-Seq; form: RNA; matrix: in vitro; tested at: 365 nM; baseline: no-protein control; reading: higher = stronger binding; endpoint: RBNS enrichment (R)
Target: RNA binding protein fox-1 homolog 2, RRM domain, GST-SBP tag (RBFOX2, Homo sapiens, UniProt O43251-10, residues 100-194)
Setting: natural RNA segment, single round, ends assumed
All sequences stand within: GGGAGUUCUACAGUCCGACGAUC … UGGAAUUCUCGGGUGCCAA
Target sequence (chain): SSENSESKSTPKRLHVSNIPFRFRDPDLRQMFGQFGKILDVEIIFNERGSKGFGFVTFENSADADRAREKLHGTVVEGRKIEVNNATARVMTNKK
AGCUUGCAGAAGCUGCCAGCUGUGCUCACACCACCACCUGGGACAACCACUCGUUGGUCAAGUUCAGACACCAUCCAUGGAGGUUGCAGGAAAGCUGGGGAAGGUUAUGA: 0.384
UGUGUGUUGAGGCUAAGUUGGUGGGUUGGGUUGGCUUCUUAACAUCAAGAAACUGAAUGGAGCUCCACACCUCUAGAUCUCAAUGAUUCGGUUGGCUUCUCAGUGGAACC: 0.756
GAGAGAGCGUGUAACGUCAGAUUUGUGCCUGUCUCGAACAUUCUGUCCUAAUCAUACUUAAACAUCAGGCAGGUGGGGUUCAGUGGUAAGCGAAGGGAUUAUUAGCAAGG: 1.81
AUAUGUGUAUUUGAUAGGUGGGAUUCUGGGUCAGUGAUAAAAAAGGAUUGUAACAGGAUUGAUGGCACUUAGGGACAUCUCAUCCAACCGGGACUUAAAUUUCACACUAG: 0.719
AUGGCGCCAUUGCACUCCAGCCUGGGUGACAAGAGUGAAACUCCAUCUCAAAAAAAAAGAAAAGAAGGUCCAGCUUUUGGAUUCAAUGAGUGGGAAAUACAUUGUGCCUU: 0.781
CUGUGUGUGGGUGAUUGGAUGUGGGGGUGGGGCCCGUGGAGAGCCGGUGCCCCUCCCCAUCUCCCCGUGCCUGUAUCUAAUAUAUAAAUAUAGAGAUGUGUAUAUGGAUG: 0.983
AUGUCUCUCAGAAUUCUUCAGGUGGAAAAACAUCUGAAAGCCACGUUCCUUACUGCAGAAUAGCAUAUAUAUCGCUUAAUCUUAAAUUUAUUAGAUAUGAGUUGUUUUCA: 0.371
CAGCCCGGAGCUGGGUGCUGGGGAAGGCGGGGCGCGUAGCCUCCCGCCGCCCUGCGGUUGGGCCGGUGGAGGCCCAGGCGUUGCUAGGAUUGCAUCAGUUUUCCUGUUUG: 0.42
AAAGCCUUUUUAAAAUGUUUUUUUUUCACUUUAAAAUAGGGUAUUCAAAGUGGAGUAACGUGUAUUUUGAAAUGAUUUUGUGUUCUAUAUAGAAUGUCCCAGUUAAGAUU: 0.689
UGAUGAAGAACUACUUAAAACUAACAGUUAAAAUCAGCUUGCCUCCCCUAGUAGAAGCAGGUUCUUGGAAGUUACAAUUUAAGGUACCCCCAAAAAGUUGGAAAUAAAAG: 0.268

Block 3 — method: EMSA with sequencing; form: double-stranded DNA, one strand shown; matrix: in vitro; tested at: 10 and 20 nM; baseline: negative control set to 0; reading: higher = stronger binding; endpoint: normalised bound fraction
Target: Hepatocyte nuclear factor 3-alpha (Foxa1, Mus musculus, UniProt P35582, residues 1-468, full length assumed)
Sequence of UniProt P35582 (whole entry, looked up): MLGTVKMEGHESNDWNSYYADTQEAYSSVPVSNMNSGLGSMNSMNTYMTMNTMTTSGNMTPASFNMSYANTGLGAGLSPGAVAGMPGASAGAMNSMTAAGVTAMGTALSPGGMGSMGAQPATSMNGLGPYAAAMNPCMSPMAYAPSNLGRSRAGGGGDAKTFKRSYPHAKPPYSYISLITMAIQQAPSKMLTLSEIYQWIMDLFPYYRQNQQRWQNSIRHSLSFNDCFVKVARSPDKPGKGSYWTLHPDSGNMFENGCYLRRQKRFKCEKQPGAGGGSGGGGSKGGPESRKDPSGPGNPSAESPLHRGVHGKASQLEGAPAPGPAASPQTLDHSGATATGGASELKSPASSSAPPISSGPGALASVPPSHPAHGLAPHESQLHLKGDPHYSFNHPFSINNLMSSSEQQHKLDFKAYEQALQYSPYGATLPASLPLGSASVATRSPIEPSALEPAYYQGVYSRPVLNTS
Setting: whole designed probe, mean of two concentrations, ends assumed
All sequences stand within: GTGAGCGGTGCCCATTGATGGGGAAC … TTTCACTGGGATCGTGGGGAC
CAGCCCACTGCCCATCCTGGCACCAGCTCAGGGACCTCCCAGAAGGCAGAGCCCTTAGGGCCCTTAGGGCCAGGACAGCACAACCTATCTGAGTAAACAGAGATCCCAGCTCTCAAGCCCTCAGGAATGGGCCTGGTGTGTTCCAGGGTCCAAAGGGTGAGGGGAAGTGGGGAGAAGGGTTCTGAGCAAACAG: 0.412 ratio
ATCTTCCCCCTCTTCCTTGCCCCACCAGCTCACCTACGGGGGTTATTTGCAGATAGGAAAATAAATAAAGCCGGCATTCGTTAACCCTCTTCACGCGCATACTGCTGTTTGCTCTGCATCTAACATGGTCCTTACGCGAGGCGTGGCTCCGGGAGAGCAAAGCACCGTGTCAGGCGCATGATCCGGGGTGGCC: 0.355 ratio
CTCAGATGGAACAGATGACCAGGGGTGACTCAGGACAGAGCAGGTGACCAGGGGAACAGATGTGAACTGCTGATTAGAACTGGTGGAAAAAGTAGATTACTGAAACTATGGGCGAGGAGAATGAGGAAGTTAAACTTTAAAATGGAGAACAAAGAACTGAACATACTGACATACTGATTCTTTGAAGAGAAAT: 0.00884 ratio
CTTCTTAGCCCTGGTGCTATTTCTTGGCTTCCACACATTCTGTACAATTGCAGCCCTGACAGCTAATTTAGCTTCACTGTTGGTGAGTTTCTAGATTGCTTTTGCTGCTGTCCAAATGATTCAAGGTGCTGAATGACGCCATCTGTATGTTGCTAGAGGCTGAGAGGGGGCTGGGAGGAAGCCTTAAGTCAAG: -0.056 ratio
ATCTTCCCCCTCTTCCTTGCCCCACCAGCTCACCTTCCCGGGTTATTTGCACAAAGGAAAATAAATAAAGCCGGCATTCGTTAACGCAGTTCACGCGCATACTGCTGTTTGCTCTGGATCTAACATGGTCCTTTGGCGAGGCGTGGCTCCGGGAGAGCAAAGCACCGTGTCAGGGCCATGATCCGGGGTGGCC: 0.367 ratio
ATCTTCCCCCTCTTCCTTGCCCCACCAGCTCACCTTCCCGGGTATCTGCAAATAAGGAAAATAAATAAAGCCGGCATTCGTTAACCCTCTTCTGGCGCAAACTGCCAGAGCAAACAGATGAATCATGGTCCTTTGGCGACGCCAGGCTCCGGGAGAGCAAAGCACCGTGTCAGGGCCATGATCCGGGGTGGCC: 0.385 ratio
TATCATGAATTTGCACTATGACAAATCAACTTTCAAGCATTTTCTTGACAGTTTTAGAGGTTTTGCCAGCTTTTGACATACATACAGACAGAGTAAACAAGGGGAAAAAAGAAAACTTAGTGAGCACGTAAGTCATGGAGTTTGAGCTCCAATAAAAATATTCATTAAAGAGGAAGAATAAGGTGGGGGGTGG: 0.316 ratio
TTTCAGATAGCTCTAGCTTCTGCCATCTTGAGTAATAAAATATGATTTACTGCTCTGCACCCTGCCAAGGATTACTCAAGATACATAGACTCATGTTGACTTAGGATTGCTGCTAAAAATGAATTGACAGCAGTATGATTTCTGGATTTAAAAGAGGTCATAAACAGACTTTGATAAGTGATATTTTATGTAG: 0.249 ratio

Single results of other studies
PhoQ, residues 284 288 289 292 302 303 SSTLSG  fold induction (PhoP, residues 12 14 15 18 19 STWGI (Escherichia coli, UniProt P23836); Sort-seq, measured: YFP reporter; E. coli; PhoQ-PhoP variant library, with: 10 µM Mg2+; baseline: high Mg2+ state, higher = stronger signaling): 5.26

Excerpt of the above (block 1):
ARYKRLLLINDFG [K6L]: 1.9
ARYKRKLLINDVG [F12V]: 0.74
